Measurements pooled from the literature.
Parts stem from different laboratories: compare values within a part only.

Set 1
Target: Interferon regulatory factor 5, full length, phosphomimetic (IRF5, Homo sapiens, UniProt Q13568-2, residues 1-514, K96S/S451D/S453D/S456D/S462D)
Method: protein-binding microarray
Form: double-stranded DNA, one strand shown
Matrix: in vitro
Tested at: 250 nM
Notes: 60-bp whole probe
Added: salmon DNA 0.4 mg/ml
Reference: random background probes
Reading: higher = stronger binding
Measurement: log fluorescence
Shared flanks, not repeated: GCCTAGCAC … GTCTTGATTCGCTTGACGCTGCTG
TTAGGTATCCTTCGCCTTTAGTGCTAG: 0.369 z-score
TTAGGTCTACTACTGCTTTAGTGCTAG: -0.3 z-score
TCATTTCCATCTCTCAAACTGTGCTAG: 1.63 z-score
TCACTTCCCAATTGTCTTACTGTGCTA: 0.76 z-score
GGCGGTATCGGTTTCGGGACGTGCTAG: 8.39 z-score
GAGGGTATCGACTTTCGGGACGTGCTA: 5.85 z-score

Set 2
Target: Histone acetyltransferase KAT6A, winged helix 1, GST fusion (KAT6A, Homo sapiens, UniProt Q92794, residues 1-85)
Method: protein binding microarray
Form: double-stranded DNA, one strand shown
Matrix: in vitro
Tested at: not given
Notes: 8-mer, flanks averaged, mean of 2 arrays, mostly near background
Reference: not given
Reading: higher = stronger binding
Measurement: E-score
Construct (chain): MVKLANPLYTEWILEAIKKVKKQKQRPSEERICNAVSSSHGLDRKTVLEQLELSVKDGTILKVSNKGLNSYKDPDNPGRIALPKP
AAGGCAAA: -0.152
AGACACTC: -0.215
CCGGACAA: 0.133
GACATAAA: 0.0477
AACGATTG: -0.106
AGACATGC: -0.0429
CTTCAATA: -0.222
ACCTAAGC: -0.0625

Set 3
Target: Sal-like protein 4, full length isoform B (SALL4, Homo sapiens, UniProt Q9UJQ4-2, residues 1-616)
Method: universal PBM
Form: double-stranded DNA, one strand shown
Matrix: in vitro
Tested at: not given
Notes: 8-mer, flanks averaged, mean of replicates
Reading: higher = stronger binding
Measurement: E-score
Residues (chain): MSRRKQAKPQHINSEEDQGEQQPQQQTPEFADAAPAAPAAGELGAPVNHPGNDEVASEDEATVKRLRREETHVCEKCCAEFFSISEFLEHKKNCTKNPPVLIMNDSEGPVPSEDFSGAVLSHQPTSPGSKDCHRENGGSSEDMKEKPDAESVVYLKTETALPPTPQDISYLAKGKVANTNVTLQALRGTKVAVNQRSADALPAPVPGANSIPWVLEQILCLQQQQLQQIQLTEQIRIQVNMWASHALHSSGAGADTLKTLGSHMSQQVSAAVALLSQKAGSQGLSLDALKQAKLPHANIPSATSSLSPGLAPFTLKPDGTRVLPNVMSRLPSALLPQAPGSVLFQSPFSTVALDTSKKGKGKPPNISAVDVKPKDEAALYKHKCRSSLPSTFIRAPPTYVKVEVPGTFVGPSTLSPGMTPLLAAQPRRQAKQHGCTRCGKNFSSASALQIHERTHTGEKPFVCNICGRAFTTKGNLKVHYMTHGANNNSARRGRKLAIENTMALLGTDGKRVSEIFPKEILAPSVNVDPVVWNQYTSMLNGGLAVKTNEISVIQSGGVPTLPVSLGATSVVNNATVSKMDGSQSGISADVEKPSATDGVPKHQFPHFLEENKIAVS
GTTAGTGA: 0.139
ATTCCTAC: 0.0868
AAAGCGCA: -0.0713
CAAATCAG: 0.211
ACTGCGAA: -0.0281

Mixed results
PhoQ, residues 284 288 289 292 302 303 NSMLDC
fold induction (PhoP, residues 12 14 15 18 19 NMSSL (Escherichia coli, UniProt P23836); Sort-seq, measured: YFP reporter; E. coli; PhoQ-PhoP variant library, added: 10 µM Mg2+; reference: high Mg2+ state, higher = stronger signaling): 7

A few entries again (set 1):
TCACTTCCCAATTGTCTTACTGTGCTA: 0.76 z-score
GAGGGTATCGACTTTCGGGACGTGCTA: 5.85 z-score
TTAGGTATCCTTCGCCTTTAGTGCTAG: 0.369 z-score
